{"data": "Measured values of several laboratories", "note": "± marks the error that the study gave."}
{"SMILES": "COc1ccc(S(=O)(=O)N2CCN(CC(=O)Nc3ccc(OC)cc3OC)CC2)cc1", "target": "Metabotropic glutamate receptor 4 (GRM4, Homo sapiens, UniProt Q14833)", "test": "calcium mobilization, positive allosteric modulator", "test system": "CHO cells expressing Gqi5", "conditions": "added: glutamate", "scale": "baseline: PHCCC maximal response", "endpoint": "maximal response", "result": "20.8 ± 1.1%"}
{"SMILES": "CC[C@H](C)[C@H](NC(C)=O)C(=O)N[C@H]1CSSC[C@@H](C(=O)N[C@H](C(N)=O)[C@@H](C)O)NC(=O)[C@H](CCCNC(=N)N)NC(=O)[C@H](Cc2c[nH]cn2)NC(=O)[C@H](C)NC(=O)CNC(=O)[C@H](Cc2c[nH]c3ccccc23)NC(=O)[C@H](CC(=O)O)NC(=O)[C@H](CCC(N)=O)NC(=O)[C@H](Cc2ccc(OC)cc2)NC(=O)[C@H](C(C)C)NC1=O", "target": "Complement C3, C3b fragment (Homo sapiens, UniProt P01024)", "test": "SPR", "conditions": "pH 7.4, 25 °C", "endpoint": "koff", "result": "0.082 ± 0.008 s⁻¹"}
{"SMILES": "Cc1ccc(OCC(=O)N[C@@H](Cc2cn(CCNC(=O)c3ccc(S[C@@H]4O[C@H](CO)[C@H](O)[C@H](O)[C@H]4O)cc3)nn2)C(=O)NCCO)cc1", "target": "PA-I galactophilic lectin (lecA, Pseudomonas aeruginosa, UniProt Q05097)", "test": "binding, isothermal titration calorimetry", "conditions": "25 °C", "endpoint": "−TΔS", "result": "3.73 ± 0.143 kcal/mol"}
{"SMILES": "O=C(N[C@@H](Cc1coc2ccccc12)B(O)O)[C@@H]1C[C@H]2CC[C@@H]1O2", "target": "Proteasome component C5/PSMB8 (Homo sapiens, UniProt P20618+P28062)", "test system": "mouse, U266B1 xenograft, tumour", "conditions": "oral, single dose, 24 h", "endpoint": "protein level", "result": "no effect"}
{"SMILES": "CC1(C)CCN(Cc2ccc(C(=O)NC[C@]3(O)CCCN(c4cc(NCc5ccccc5)ncn4)C3)c(O)c2)CC1", "target": "Receptor-type tyrosine-protein kinase FLT3 (FLT3, Homo sapiens, UniProt P36888, D835Y)", "test": "kinase activity, radiometric", "conditions": "10 µM, added: 10 µM ATP", "endpoint": "remaining activity", "result": "80%"}
{"SMILES": "NC(=O)CN1C(=O)C(O)(CC(=O)c2cccc(N)c2)c2ccccc21 (stereo not shown)", "target": "uncharacterized protein (Leishmania donovani, UniProt A0A3Q8IA09)", "test": "competitive ITC", "conditions": "added: glutamate 60 µM", "endpoint": "TΔS", "result": "-4.62 kcal/mol"}
{"SMILES": "CC[C@H](C)[C@H](NC(=O)[C@H](CCCNC(=N)N)NC(=O)NC[C@H](CCC(N)=O)NC(=O)NC[C@H](CC(C)C)NC(=O)NC[C@H](CCCNC(=N)N)NC(=O)NC[C@H](CCc1ccccc1)NC(=O)[C@H](CCCCN)NC(=O)[C@H](CCC(=O)O)NC(C)=O)C(=O)N[C@@H](C)C(N)=O", "target": "Histone chaperone ASF1A (Homo sapiens, UniProt Q9Y294)", "test": "isothermal titration calorimetry", "conditions": "pH 7.5, 20 °C", "endpoint": "-TΔS", "result": "-3.5 ± 0.7 kcal/mol"}
{"SMILES": "CNc1ccccc1C(=O)O[C@H]1C[C@H](n2cnc3c(N)ncnc32)O[C@@H]1COP(=O)(O)OP(=O)(O)O", "target": "Unconventional myosin-Va (Gallus gallus, UniProt Q02440, D297C/G292C/I296C/S293C/V295G)", "test": "stopped-flow FRET", "conditions": "10 °C, added: EDTA 4 mM", "endpoint": "dissociation rate constant", "result": "25.3 ± 0.2 s⁻¹"}
{"SMILES": "Cc1cc(Cl)cc(-c2ccnc3cc(CN4C(=O)C5C(C4=O)C5(C)C)sc23)c1C[C@@H]1CNCCO1 (stereo partly shown)", "target": "Ubiquitin carboxyl-terminal hydrolase 7 (USP7, Homo sapiens, UniProt Q93009, V517F)", "test": "isothermal titration calorimetry", "scale": "baseline: V517F over wild type", "endpoint": "Kd ratio", "result": "57 fold"}
{"SMILES": "N=C(N)NCCC[C@H](NC(=O)[C@H](Cc1ccccc1)NC(=O)[C@@H]1CCCN1C(=O)[C@H](CO)NC(=O)[C@H](Cc1ccccc1)NC(=O)CNC(=O)[C@@H]1CCCN1C(=O)[C@@H]1CCCN1C(=O)[C@@H](N)CCCNC(=N)N)C(=O)O", "target": "B2 bradykinin receptor (Rattus norvegicus, UniProt P25023)", "test": "inositol phosphate accumulation, agonist", "test system": "primary rat trigeminal ganglion cells", "endpoint": "Emax", "result": "47 ± 3 % above basal"}
{"note": "For quick reference, copied from above:"}
{"SMILES": "Cc1cc(Cl)cc(-c2ccnc3cc(CN4C(=O)C5C(C4=O)C5(C)C)sc23)c1C[C@@H]1CNCCO1 (stereo partly shown)", "target": "Ubiquitin carboxyl-terminal hydrolase 7 (USP7, Homo sapiens, UniProt Q93009, V517F)", "test": "isothermal titration calorimetry", "scale": "baseline: V517F over wild type", "endpoint": "Kd ratio", "result": "57 fold"}
